{"data": "Results from different studies", "cell line": "MCF7", "note": "Protocols differ between the studies behind these lines. “And” joins repeats or separate records; there may be more than shown. ± marks the error that the study gave."}
{"SMILES": "Cc1c(COc2cc(OCc3cccc(C#N)c3)c(CNC(CO)(CO)CO)cc2Cl)cccc1-c1cccc(OCCCCCC(=O)NO)c1", "assay": "annexin V-FITC/PI flow cytometry", "setting": "10 µM, 48 h, early plus late apoptosis", "quantity": "apoptotic cells", "result": "65.5%"}
{"SMILES": "C[C@@H]1Cc2c([nH]c3ccccc23)[C@@H](c2c(F)cc(/C=C/C(=O)O)cc2F)N1C12CC(C1)C2", "assay": "RNA-seq, measured: CT62 mRNA", "setting": "1 µM, 24 h, E2-induced gene", "how to read": "reference: DMSO vehicle", "quantity": "log2 fold change", "result": -3.7}
{"SMILES": "CCCCCCCCCCCCNC(=S)NCCCC[C@H](NC(=O)OCc1ccccc1)C(=O)N[C@@H](Cc1c[nH]c2ccccc12)C(=O)NC(C)C", "assay": "cell growth or viability, MTT", "setting": "72 h", "quantity": "EC50", "result": "25.6 to 28.9 µM"}
{"SMILES": "COc1ccc(CNC[C@](O)(COCc2ccccc2)[C@@H]2CC[C@@H](C)C[C@H]2OCc2ccccc2)cc1", "assay": "cell growth or viability, MTT", "setting": "10 µM, 72 h", "quantity": "inhibition", "result": "84.1%"}
{"SMILES": "COCCn1cc(COc2cccc(Cc3cnc(NC(=O)CSc4nc(C)cc(C)n4)s3)c2)nn1", "assay": "cell viability, MTS", "setting": "10 µM", "quantity": "inhibition", "result": "10.5 ± 1.7%"}
{"SMILES": "CC(=O)[O][Pd][c]1ccccc1N1N=C(C)C(C)(C)C1=O.CC(=O)[O][Pd][c]1ccccc1N1N=C(C)C(C)(C)C1=O", "assay": "annexin V/PI flow cytometry", "setting": "25 µM, 24 h", "quantity": "late apoptotic cells", "result": "79.1 ± 1.28%"}
{"SMILES": "C[C@@H]1CC[C@@H]([C@@](O)(CNCc2ccc(F)cc2)COCc2ccccc2)[C@H](OCc2ccccc2)C1", "assay": "cell growth or viability, MTT", "setting": "30 µM, 72 h", "quantity": "inhibition", "result": "83.6%"}
{"SMILES": "CSC(=S)N/N=C(\\C)c1ccc(S(=O)(=O)N2CCC(C)CC2)cc1", "assay": "annexin V/PI", "setting": "concentration not given, 72 h, at IC50", "quantity": "early apoptotic cells", "result": "4.49%"}
{"SMILES": "COc1cc(/C=C/C(=O)/C=C(O)/C=C/c2ccc(OCC(=O)N3CCOCCOCCOCC3)c(OC)c2)ccc1OCC(=O)N1CCOCCOCCOCC1", "assay": "cell growth or viability, SRB", "setting": "25 µM", "quantity": "inhibition", "result": "47.6%"}
{"SMILES": "CSC(=NN=C(C)c1ccc(S(=O)(=O)N2CCC(C)CC2)cc1)N(C)C", "assay": "flow cytometry", "setting": "4.29 µM (IC50), 72 h", "quantity": "cells in pre-G1 phase", "result": "16.2%"}
{"SMILES": "COCCCCCNc1nc(NCCCCCCN(C)C)c2cc(NC(=O)/C=C/CN(C)C)ccc2n1", "assay": "CellTiter-Glo", "setting": "1.562 µM, 48 h, unit not given", "how to read": "reference: DMSO-treated cells", "quantity": "viability", "result": "1.02 and 1.12 and 1.09"}
{"SMILES": "COc1ccc(C2CC(=O)c3c(cc(O)c(CC=C(C)C)c3O)O2)cc1 (stereo not shown)", "assay": "cytotoxicity, MTT", "setting": "14.11 µM, 48 h", "quantity": "growth inhibition", "result": "0.003%"}
{"SMILES": "COc1ccc(CNC[C@@](O)(COCc2ccc(OC)cc2)[C@@H]2CC[C@@H](C)C[C@H]2OCc2ccc(OC)cc2)cc1", "assay": "cell growth or viability, MTT", "setting": "10 µM, 72 h", "quantity": "inhibition", "result": "96.5%"}
{"SMILES": "CC(=O)[O][Pd][c]1cc(C)ccc1N1N=C(C)C(C)(C)C1=O.CC(=O)[O][Pd][c]1cc(C)ccc1N1N=C(C)C(C)(C)C1=O", "assay": "FLICA flow cytometry", "setting": "25 µM, 24 h", "quantity": "caspase-3/7 active cells", "result": "41.1 ± 4.3%"}
{"SMILES": "C[C@@H]1CC[C@@H]([C@@](O)(CNCc2cccc(F)c2)COCc2ccccc2)[C@H](OCc2ccccc2)C1", "assay": "cell growth or viability, MTT", "setting": "30 µM, 72 h", "quantity": "inhibition", "result": "96.8%"}
{"SMILES": "O=C(CCl)c1ccccc1Nc1cccc(C(F)(F)F)c1", "assay": "firefly luciferase reporter", "setting": "100 µM, 6 h", "how to read": "reference: vehicle", "quantity": "TEAD reporter activity", "result": "0.1 ± 0.1%"}
{"SMILES": "CC[C@@H]([C@H](CC)c1ccc(O)cc1)[C@@H](C)c1ccc(O)cc1", "assay": "cell growth or viability, ATP luminescence", "setting": "5 days", "quantity": "EC50", "result": "0.0097 µM"}
{"SMILES": "C[C@@H]1CC[C@@H]([C@](O)(COCc2ccccc2)Cn2cnc3ccccc32)[C@H](OCc2ccccc2)C1", "assay": "cell growth or viability, MTT", "setting": "10 µM, 72 h", "quantity": "inhibition", "result": "84.3%"}
{"SMILES": "CC(=NN=c1sc(C(=O)c2ccccc2)nn1-c1ccccc1)c1ccc(S(=O)(=O)N2CCC(C)CC2)cc1", "assay": "flow cytometry", "setting": "4.29 µM (IC50), 72 h", "quantity": "cells in S phase", "result": "33.1%"}
{"SMILES": "CSC(=S)N/N=C(\\C)c1ccc(Nc2nnc(-c3ccc(Cl)cc3)c3ccccc23)cc1", "assay": "cell growth or viability, MTT", "setting": "1.25 µM, 24 h", "quantity": "viability", "result": "9.78%"}
{"SMILES": "CCN(C(=O)c1cc(F)ccc1Oc1nncnc1N1CCC2(C1)CN([C@H](CCCN(C)CCOC)C(C)C)C2)C(C)C", "assay": "cell growth or viability", "setting": "72 h", "quantity": "GI50", "result": "> 10 µM"}
{"SMILES": "COc1ccccc1CNC[C@@](O)(COCc1ccccc1)[C@@H]1CC[C@@H](C)C[C@H]1OCc1ccccc1", "assay": "cell growth or viability, MTT", "setting": "10 µM, 72 h", "quantity": "inhibition", "result": "93.4%"}
{"SMILES": "COC(=O)c1cc(NC2=NC(=O)C(=Cc3ccc(C)cc3)S2)ccc1OC(C)=O", "assay": "GC-MS, measured: Phosphorylethanolamine", "setting": "1 µM", "how to read": "reference: DMSO", "quantity": "metabolite level", "result": "-0.84 fold change"}
{"SMILES": "Cc1cc(C)nc(SCC(=O)Nc2ncc(Cc3cccc4ccccc34)s2)n1", "assay": "cell growth or viability, MTT", "setting": "72 h", "quantity": "EC50", "result": "27.6 to 44.9 µM"}
{"SMILES": "C[C@@H]1CC[C@@H]([C@@](O)(CNCc2ccc(F)cc2)COCc2ccc(F)cc2)[C@H](OCc2ccc(F)cc2)C1", "assay": "cell growth or viability, MTT", "setting": "30 µM, 72 h", "quantity": "inhibition", "result": "99.7%"}
{"SMILES": "CCC(=CCc1c(O)cc2c(c1O)C(=O)CC(c1cccc(O)c1)O2)CC (stereo not shown)", "assay": "cytotoxicity, MTT", "setting": "6.786 µM, 48 h", "quantity": "growth inhibition", "result": "15.4%"}
{"SMILES": "C/C(=N\\NC(N)=S)c1c(O)c2ccccc2oc1=O", "assay": "cell growth, MTT", "how to read": "reference: IC50 BJ-1 over MCF7", "quantity": "selectivity index", "result": "> 12.3"}
{"SMILES": "COC(=O)c1cc(NC2=NC(=O)C(=Cc3ccc(N(C)C)cc3)S2)ccc1OC(C)=O", "assay": "GC-MS, measured: 2-Propenoic acid", "setting": "1 µM", "how to read": "reference: DMSO", "quantity": "metabolite level", "result": "0.22 fold change"}
{"SMILES": "COc1cccc(CNC[C@@](O)(COCc2ccccc2)[C@@H]2CC[C@@H](C)C[C@H]2OCc2ccccc2)c1", "assay": "cell growth or viability, MTT", "setting": "10 µM, 72 h", "quantity": "inhibition", "result": "72.1%"}
{"SMILES": "C=CCc1c(O)cc2c(c1O)C(=O)CC(c1ccc(O)cc1)O2 (stereo not shown)", "assay": "cytotoxicity, MTT", "setting": "128.1 µM, 48 h", "quantity": "growth inhibition", "result": "58.2%"}
{"SMILES": "CC(C)C[C@@H](NC(=O)[C@H](C)NC(=O)CNC(=O)[C@@H](NC=O)C(C)C)C(=O)N[C@@H](C)C(=O)N[C@@H](C(=O)N[C@H](C(=O)N[C@@H](C(=O)N[C@@H](Cc1c[nH]c2ccccc12)C(=O)N[C@H](CC(C)C)C(=O)N[C@@H](Cc1c[nH]c2ccccc12)C(=O)N[C@H](CC(C)C)C(=O)N[C@@H](Cc1c[nH]c2ccccc12)C(=O)N[C@H](CC(C)C)C(=O)N[C@@H](Cc1c[nH]c2ccccc12)C(=O)NCCO)C(C)C)C(C)C)C(C)C", "assay": "flow cytometry", "setting": "20 nM, 48 h", "quantity": "cells in G1 phase", "result": "52.1 ± 0.94%"}
{"SMILES": "CCC(=CCc1c(O)cc2c(c1O)C(=O)CC(c1ccccc1O)O2)CC (stereo not shown)", "assay": "cytotoxicity, MTT", "setting": "27.14 µM, 48 h", "quantity": "growth inhibition", "result": "8.55%"}
{"SMILES": "CC(=O)[O][Pd][c]1ccccc1-n1nc(C)cc1C.CC(=O)[O][Pd][c]1ccccc1-n1nc(C)cc1C", "assay": "FLICA flow cytometry", "setting": "25 µM, 24 h", "quantity": "caspase-9 active cells", "result": "40.6 ± 1.15%"}
{"SMILES": "CCC(=CCc1c(O)cc2c(c1O)C(=O)CC(c1ccc(OC)c(O)c1)O2)CC (stereo not shown)", "assay": "cytotoxicity, MTT", "setting": "100.4 µM, 48 h", "quantity": "growth inhibition", "result": "95.2%"}
{"SMILES": "C/C(=N\\N=C1/NC(=O)CS1)c1c(O)c2ccccc2oc1=O", "assay": "cell growth, MTT", "how to read": "reference: IC50 BJ-1 over MCF7", "quantity": "selectivity index", "result": "> 3.8"}
{"SMILES": "CCC(=CCc1c(O)cc2c(c1O)C(=O)CC(c1ccc(O)cc1)O2)CC (stereo not shown)", "assay": "cytotoxicity, MTT", "setting": "108.6 µM, 48 h", "quantity": "growth inhibition", "result": "83.6%"}
{"SMILES": "Oc1cccc(-c2cccc(O)n2)n1.[Cl-].[Cl-].[Ru+2].c1ccc(-c2ccnc3c2ccc2c(-c4ccccc4)ccnc23)cc1.c1ccc(-c2ccnc3c2ccc2c(-c4ccccc4)ccnc23)cc1", "assay": "CCK-8 viability", "setting": "white light 2 h", "quantity": "EC50", "result": "2 µM"}
{"note": "Excerpt of the above:"}
{"SMILES": "CCCCCCCCCCCCNC(=S)NCCCC[C@H](NC(=O)OCc1ccccc1)C(=O)N[C@@H](Cc1c[nH]c2ccccc12)C(=O)NC(C)C", "assay": "cell growth or viability, MTT", "setting": "72 h", "quantity": "EC50", "result": "25.6 to 28.9 µM"}
{"SMILES": "COc1ccc(CNC[C@](O)(COCc2ccccc2)[C@@H]2CC[C@@H](C)C[C@H]2OCc2ccccc2)cc1", "assay": "cell growth or viability, MTT", "setting": "10 µM, 72 h", "quantity": "inhibition", "result": "84.1%"}
{"SMILES": "COCCn1cc(COc2cccc(Cc3cnc(NC(=O)CSc4nc(C)cc(C)n4)s3)c2)nn1", "assay": "cell viability, MTS", "setting": "10 µM", "quantity": "inhibition", "result": "10.5 ± 1.7%"}
{"SMILES": "CC(=O)[O][Pd][c]1ccccc1N1N=C(C)C(C)(C)C1=O.CC(=O)[O][Pd][c]1ccccc1N1N=C(C)C(C)(C)C1=O", "assay": "annexin V/PI flow cytometry", "setting": "25 µM, 24 h", "quantity": "late apoptotic cells", "result": "79.1 ± 1.28%"}
{"SMILES": "C[C@@H]1CC[C@@H]([C@@](O)(CNCc2ccc(F)cc2)COCc2ccccc2)[C@H](OCc2ccccc2)C1", "assay": "cell growth or viability, MTT", "setting": "30 µM, 72 h", "quantity": "inhibition", "result": "83.6%"}
{"SMILES": "CSC(=S)N/N=C(\\C)c1ccc(S(=O)(=O)N2CCC(C)CC2)cc1", "assay": "annexin V/PI", "setting": "concentration not given, 72 h, at IC50", "quantity": "early apoptotic cells", "result": "4.49%"}
